Measured values from different studies.
± marks the error that the study gave.

| Structure (SMILES) | test | test system | setting | measurement | value |
| --- | --- | --- | --- | --- | --- |
| Cc1ncccc1-c1ccc(C(=O)N2CC[C@H](C(=O)Nc3cc(F)c(F)c(F)c3)C2)[nH]1 |  | human liver microsomes | 1 µM | CLint | 5.7 µL/min/mg protein |
| CCc1nc(-c2ccc(-c3ccc(CCC(N)(CO)CO)cc3)cc2)co1 | phosphorylation | rat whole blood |  | CLint | 0.309 µL/min |
| Cc1ncncc1-c1ccc(C(=O)N2CC[C@H](C(=O)Nc3cc(F)c(F)c(F)c3)C2)[nH]1 |  | human liver microsomes | 1 µM | CLint | 7.1 µL/min/mg protein |
| CC[C@@H](C)[C@@H]1NC(=O)[C@@H](Cc2ccccc2)NC(=O)[C@@H]2CCCN2C(=O)[C@H]([C@H](C)CC)NC(=O)[C@@H](Cc2ccccc2)NC(=O)[C@@H]2CCCN2C1=O |  | human liver microsomes |  | CLint | 7.14 mL/min/g tissue |
| CCC/C(=C\C1=C(OC)C(=O)c2ccccc2C1=O)C(=O)NOC |  | mouse liver S9 | 1 µM, pH 7.4, phase I metabolism | CLint scaled | 20.2 mL/min/kg |
| Brc1ccc(Nc2nc(NN=Cc3c[nH]c4ccccc34)nc(N3CCOCC3)n2)cc1 |  | rat liver microsomes |  | CLint | 33.2 mL/min/g protein |
| CCC/C(=C\C1=C(F)C(=O)c2ccccc2C1=O)C(=O)N(CC)CC |  | human liver S9 | 1 µM, pH 7.4, metabolism | CLint scaled | 5.3 mL/min/kg |
| O=C(O)C1OC(Oc2cccc(-c3nc(N4CCOCC4)c4oc5ncccc5c4n3)c2)C(O)C(O)C1O (centres unmarked) | glucuronide formation | minipig liver microsomes | pH 7.4 | CLint | 145 ± 18.4 µL/min/mg |

Excerpt of the above:
| Structure (SMILES) | test | test system | setting | measurement | value |
| --- | --- | --- | --- | --- | --- |
| CCC/C(=C\C1=C(OC)C(=O)c2ccccc2C1=O)C(=O)NOC |  | mouse liver S9 | 1 µM, pH 7.4, phase I metabolism | CLint scaled | 20.2 mL/min/kg |
